Measured values of several laboratories.
Lines come from different studies, so protocols differ. ± gives the spread as reported.

Compound	test	test system	conditions	measurement	result
O=c1cc(-c2ccccc2)oc2c(Br)c(O)c(O)c(O)c12		C57BL/6 mouse, plasma	po, 250 mg/kg	Vz	696 ± 139 mL
CC[C@H](C)[C@H](NC(=O)CNC(=O)[C@H](CSCC(N)=O)NC(=O)[C@@H](NC(=O)CNC(=O)[C@H](CCCNC(=N)N)NC(=O)[C@@H](NC(=O)[C@H](CCCNC(=N)N)NC(=O)[C@H](CCC(=O)O)NC(=O)CNC(=O)[C@H](CCCNC(=N)N)NC(=O)[C@H](CCCCN)NC(=O)[C@H](CSCC(N)=O)NC(=O)[C@H](Cc1c[nH]cn1)NC(=O)CNC(=O)[C@H](CCCCN)NC(=O)[C@H](CCCNC(=N)N)NC(=O)[C@H](CSCC(N)=O)NC(=O)[C@H](Cc1ccc(O)cc1)NC(=O)[C@@H](N)CSCC(N)=O)C(C)C)[C@@H](C)O)C(=O)N[C@@H](CCCNC(=N)N)C(=O)N[C@@H](Cc1ccccc1)C(=O)N[C@@H](CC(C)C)C(=O)N[C@@H](Cc1ccc(O)cc1)C(=O)N[C@@H](CSCC(N)=O)C(=O)N[C@@H](CSCC(N)=O)C(=O)N1CCC[C@H]1C(=O)N[C@@H](CCCNC(=N)N)C(=O)N[C@@H](CCCNC(=N)N)C(=O)NCC(=O)N[C@@H](CC(C)C)C(=O)N[C@@H](CC(C)C)C(=O)NO		100% human serum	27 µM, 37 °C, heat-inactivated serum	onset of degradation	2 min
O=C(c1ccc(F)cc1)C1CCN(C2Cc3c(cccc3OCC[18F])CC2O)CC1 (single isomer, unassigned; (-))		Sprague-Dawley rat, male, heart	intravenous, dose not given, 5 min	tissue uptake	0.706 ± 0.17 %ID/g
CCCCCCCCCCCCC(=O)O.O=C1CCCC2C3CCCN4CCCC(CN12)C34 (centres unmarked)		water	concentration not given, 308.15 K	limiting apparent molar volume	431.95 ± 0.2 cm³/mol
CC[C@H](C)[C@H](NC(=O)[C@H](CCCN)NC(=O)[C@H](CC(N)=O)NC(=O)[C@H](Cc1c[nH]c2ccccc12)NC(=O)[C@H](Cc1ccccc1)NC(=O)[C@H](CCCN)NC(=O)[C@H](CCCCNC(=N)N)NC(=O)[C@H](CC(C)C)NC(=O)[C@H](Cc1c[nH]c2ccccc12)NC(=O)[C@H](CCCN)NC(=O)[C@H](CCCCNC(=N)N)NC(=O)[C@H](CC(C)C)NC(=O)CNC(C)=O)C(=O)N[C@@H](CCCN)C(=O)N[C@@H](CCCCNC(=N)N)C(N)=O		Kunming mice	intravenous, 25 mg/kg, 5 days	survival	0%
CC(C)[C@@H]1NC(=O)[C@H](Cc2ccccc2)NC(=O)[C@H](Cc2ccc(O)cc2)NC(=O)CCSSC[C@@H](C(=O)N2CCC[C@H]2C(=O)N[C@H](CCCNC(=N)N)C(=O)NCC(N)=O)NC(=O)[C@H](CCC(N)=O)NC1=O		Wistar rat, blood	intravenous, 1 µg/kg single dose, 72 h	haematocrit	40 ± 1.6%
CN(C)C(CNC(=O)Nc1cc(C(F)(F)F)ccc1N1CCOCC1)c1ccncc1 (centres unmarked)		mouse, serum	intraperitoneal, 240 mg/kg single dose	phosphorus	8 mg/dL
CCCCCCCCCCCC(=O)N=C(N)NCCC[C@H](NC(=O)[C@H](CC(C)C)NC(=O)[C@@H](CC(C)C)NC(=O)[C@H](Cc1ccc(O)cc1)NC(=O)[C@H](CO)NC(=O)[C@H](Cc1c[nH]c2ccccc12)NC(=O)[C@H](Cc1c[nH]cn1)NC(=O)[C@@H]1CCC(=O)N1)C(=O)N1CCC[C@H]1C(=O)NCC		human plasma	21 days, pH 7.4, 37 °C	conversion to leucine	95.5 ± 6.09%
COc1cc(NC(=O)C(=O)c2c(C)n(Cc3ccc(Cl)cc3)c3ccc(C)cc23)ccn1		cynomolgus monkey, both sexes, plasma	intravenous, 1 mg/kg	central volume	432 mL/kg
COc1ccc2c3c(c4cc(OC)c(OC)cc4c2c1)C(=O)N1CCCC1C3 (centres unmarked)		swine cells	24 (unit not given)	CC50	71.5 ± 2.15 µM
CCCC[C@H]1C(=O)N(C)[C@@H](CCCC)C(=O)N[C@@H](CCCNC(=O)CN2CCN(CC(=O)O)CCN(CC(=O)O)CCN(CC(=O)O)CC2)C(=O)N[C@H](C(=O)NCC(N)=O)CSCC(=O)N[C@@H](Cc2ccc(O)cc2)C(=O)N(C)[C@@H](C)C(=O)N[C@@H](CC(N)=O)C(=O)N2CCC[C@H]2C(=O)N[C@@H](Cc2c[nH]cn2)C(=O)N[C@@H](CC(C)C)C(=O)N(C)CC(=O)N[C@@H](Cc2c[nH]c3ccccc23)C(=O)N[C@@H](CO)C(=O)N[C@@H](Cc2c[nH]c3ccccc23)C(=O)N1C [gallium-68 labelled]	static PET	NOD/SCID mice, CHO-hPD-L1 xenograft, CHO-hPD-L1 tumour	intravenous, 1 h post injection, before atezolizumab treatment	tumour to muscle ratio	7.72 ± 0.48

Excerpt of the above:
Compound	test	test system	conditions	measurement	result
CC(C)[C@@H]1NC(=O)[C@H](Cc2ccccc2)NC(=O)[C@H](Cc2ccc(O)cc2)NC(=O)CCSSC[C@@H](C(=O)N2CCC[C@H]2C(=O)N[C@H](CCCNC(=N)N)C(=O)NCC(N)=O)NC(=O)[C@H](CCC(N)=O)NC1=O		Wistar rat, blood	intravenous, 1 µg/kg single dose, 72 h	haematocrit	40 ± 1.6%
